Published values of several laboratories.
A part holds a random share of what one study measured. Changes are numbered by the printed parent chain.

Block 1 — technique: protein binding microarray; form: double-stranded DNA, one strand shown; medium: in vitro; tested at: not given; relative to: not given; reading: higher = stronger binding
Target: Histone acetyltransferase KAT6A, winged helix 2, GST fusion (KAT6A, Homo sapiens, UniProt Q92794, residues 85-181)
Notes: 8-mer, flanks averaged, mean of 2 arrays, mostly near background
Construct (chain): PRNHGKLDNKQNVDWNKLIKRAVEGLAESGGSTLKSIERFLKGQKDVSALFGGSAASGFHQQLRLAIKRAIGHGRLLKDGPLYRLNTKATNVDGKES
`ACTTCTGA` has an E-score of -0.0689.
The E-score of `CAGCTCGA` is reported as 0.0289.
`AGGCCGGG` has an E-score of 0.182.
`CGAAAGTA` has an E-score of -0.153.
The E-score of `GATGAAAC` is reported as 0.0752.
`CACGCTCG` has an E-score of -0.0556.
The E-score of `ACCGAATG` is reported as 0.122.
`GTGGTTCA` has an E-score of 0.0225.
The E-score of `GACTTGCA` is reported as -0.077.
With `CTACGCTC` the E-score was -0.116.
The E-score of `CAACCAGA` is reported as -0.00409.
For `TAACAGTA`, the E-score was -0.122.
The E-score of `CACCATAC` is reported as -0.068.
For `CGCGTAGC`, the E-score was 0.167.
`AACTGAGA` has an E-score of 0.076.
For `ACTTCTTC`, the E-score was -0.0647.
With `ATAAGTAC` the E-score was -0.173.
`GGAGGGCC` gave an E-score of 0.0692.
With `AATCGGAC` the E-score was -0.0313.

Block 2 — target: CCNA2, cyclin fold, Cln2 fusion (human); technique: yeast growth competition, sequencing; medium: yeast; notes: weak parent motif; relative to: not given; reading: higher = stronger binding
Parent: SLBP docking peptide (human); ARYKRKLLINDFG
Under “normalised enrichment score”, `D11P` is recorded as 2.64.
`K6S` — result for “normalised enrichment score”: 0.917.
`A1N` — result for “normalised enrichment score”: 1.62.
`D11W` — result for “normalised enrichment score”: 1.2.
For `D11L`, “normalised enrichment score” read 1.97.
For `F12S`, “normalised enrichment score” read 0.817.
Under “normalised enrichment score”, `R2D` is recorded as 1.07.
For `K6L`, “normalised enrichment score” read 1.9.
`A1K`: “normalised enrichment score” 0.00767.
`L8N` — result for “normalised enrichment score”: 1.57.
Under “normalised enrichment score”, `L8M` is recorded as 1.46.

Block 3 — technique: DHFR PCA, deep sequencing; medium: yeast; added: (+)-ABA 0.0091 µM; relative to: wild-type fitted maximum; reading: higher = stronger binding
Target: ABI1, truncated, D143A, DHFR fusion (Arabidopsis thaliana)
Notes: methotrexate growth selection, single substitutions
Parent: PYL1, truncated, DHFR fusion (Arabidopsis thaliana); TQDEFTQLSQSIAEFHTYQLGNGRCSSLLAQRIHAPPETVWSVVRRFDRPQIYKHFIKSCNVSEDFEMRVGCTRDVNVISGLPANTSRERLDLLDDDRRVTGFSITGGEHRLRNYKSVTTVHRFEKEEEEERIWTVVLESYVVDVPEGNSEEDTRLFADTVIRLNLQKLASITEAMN
For `H34M`, “relative binding score” read 45.7%.
`P83K` — result for “relative binding score”: 15.4%.
`T160P`: “relative binding score” -0.626%.
`R163W`: “relative binding score” -2.5%.
`L8H`: “relative binding score” -1.38%.
`V43R` — result for “relative binding score”: -1.45%.
Under “relative binding score”, `S26V` is recorded as 0.61%.
Under “relative binding score”, `F66H` is recorded as 1.19%.
Under “relative binding score”, `L20G` is recorded as 25.4%.
`R123V` — result for “relative binding score”: -4.22%.
Under “relative binding score”, `G102R` is recorded as -0.112%.
`F15Q`: “relative binding score” -6.91%.
Under “relative binding score”, `Q10N` is recorded as 23.8%.
`V161E`: “relative binding score” 1.46%.
`R32G` — result for “relative binding score”: 0.121%.
`E147H` — result for “relative binding score”: 12%.

Single results of other studies
With `PhoQ, residues 284 288 289 292 302 303 AMDMFI` the fold induction was 1.24 (PhoP, residues 12 14 15 18 19 NHFRA (Escherichia coli, UniProt P23836); Sort-seq, measured: YFP reporter; E. coli; PhoQ-PhoP variant library, added: 10 µM Mg2+; relative to: high Mg2+ state, higher = stronger signaling).

A few entries again (block 1):
`GTGGTTCA` has an E-score of 0.0225.
The E-score of `GACTTGCA` is reported as -0.077.
With `CTACGCTC` the E-score was -0.116.
The E-score of `CAACCAGA` is reported as -0.00409.
For `TAACAGTA`, the E-score was -0.122.
